Assay results collected from several papers.
Numbered parts are unrelated; each lists some results of a single study. Positions count from the first letter of the parent shown.

Study 1
Target: Histone acetyltransferase KAT6A, winged helix 1, GST fusion (KAT6A, Homo sapiens, UniProt Q92794, residues 1-85)
Method: protein binding microarray
Molecule type: double-stranded DNA, one strand shown
Matrix: in vitro
Tested at: not given
Setting: 8-mer, flanks averaged, mean of 2 arrays, mostly near background
Relative to: not given
Direction: higher = stronger binding
Endpoint: E-score
Construct (chain): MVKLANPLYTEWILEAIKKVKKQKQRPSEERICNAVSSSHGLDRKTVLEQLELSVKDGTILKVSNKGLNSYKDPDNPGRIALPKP
ACAGCGTG: 0.111
CAATAGCC: -0.0131
CGGATTCC: 0.248
AGCGAAAC: 0.0182
AAGCGCTG: 0.226
GAAGATAC: 0.0889
CACCGGCC: 0.32
TAGTCCCA: -0.17
GGAGAAGA: -0.00188
ACCCATTC: -0.244
CCGGGAAG: 0.25
CGGGCCCA: 0.028
AAGGTAAT: -0.0259
AATACGAA: -0.109
ATTGCCCC: -0.173
GTTGAACA: 0.0101
TAATAAAA: -0.0446
GGCGCCTA: 0.263
ACAGCAGT: -0.177
GGCGTTAC: 0.133
GTTTGAAA: -0.133
GATCCCAC: -0.202
CTCATGTA: 0.0296
GGCCTGGA: -0.0838
CCCAGGAG: -0.251

Study 2
Target: Prothrombin, mature alpha-thrombin (F2, Homo sapiens, UniProt P00734)
Method: aptamer microarray, sandwich
Molecule type: DNA with 2'F-ANA
Matrix: in vitro
Tested at: 200 nM
Setting: whole 15-mer aptamer, many near background
Together with: Cy3 exosite-II aptamer, 400 nM
Direction: higher = stronger binding
Endpoint: mean fluorescence intensity
Oligonucleotide: GGTTGGTGTGGTTGG
2'F-ANA at 4 5 12 13 14 15: 49.3 a.u.
2'F-ANA at 4 5 6 8 10 11 14 15: 70 a.u.
2'F-ANA at 2 3 8 9 10 12 13: 401 a.u.
2'F-ANA at 2 3 4 5 7 10 11 13 15: 48.5 a.u.
2'F-ANA at 1 4 7 9 11 13 14 15: 96.3 a.u.
2'F-ANA at 1 2 4 9 12 13: 174 a.u.
2'F-ANA at 3 4 6 7 8 9 10 11 13 15: 195 a.u.
2'F-ANA at 1 3 4 6 7 10 13 15: 64.1 a.u.
2'F-ANA at 1 4 5 7 10 11 14: 49.1 a.u.
2'F-ANA at 3 4 5 6 7 10 12 13 14: 48.2 a.u.
2'F-ANA at 2 5 12 13 14 15: 47.9 a.u.
2'F-ANA at 3 7 8 14: 773 a.u.
2'F-ANA at 2 3 5 7 8 9 11 12 14: 59.8 a.u.
2'F-ANA at 1 5 6 9: 59 a.u.
2'F-ANA at 3 5 6 8 10 11 13 15: 58.3 a.u.
2'F-ANA at 1 2 3 4 7 11 12 15: 294 a.u.
2'F-ANA at 2 7 11 12 13 14 15: 169 a.u.
2'F-ANA at 1 2 6 9 10 12 13 14: 81.5 a.u.
2'F-ANA at 1 4 5 6 13: 46.8 a.u.
2'F-ANA at 1 2 3 14: 99.2 a.u.
2'F-ANA at 5 7 8 9 10 12: 74.7 a.u.
2'F-ANA at 3 4 10 11 13 14 15: 320 a.u.
2'F-ANA at 2 3 4 5 7 8 14: 68.9 a.u.
2'F-ANA at 2 5 6 8 9 14: 61.3 a.u.
2'F-ANA at 2 3 5 6 7 9 11 12 13: 109 a.u.

Study 3
Target: CCNB2, cyclin fold, Cln2 fusion (human)
Method: yeast growth competition, sequencing
Matrix: yeast
Setting: strong parent motif
Relative to: not given
Direction: higher = stronger binding
Endpoint: normalised enrichment score
Starting sequence: BRCA2 docking peptide (human); PSIKRNLLNEFDR
PSIKLNLLNEFDR [R5L]: 0.841
PSTKRNLLNEFDR [I3T]: 0.928
PSIKRNLLNEFDY [R13Y]: 3.9
PSIKRNMLNEFDR [L7M]: 0.388
PSIKINLLNEFDR [R5I]: 2.05
PSIKRNLLNELDR [F11L]: 1.37
PSIKRNLLNEDDR [F11D]: 0.15
PSIHRNLLNEFDR [K4H]: 1.2
PSIKKNLLNELDR [R5K F11L]: 0.736
PSIKRNLLNVFDR [E10V]: 0.436
NSIKRNLLNEFDR [P1N]: 3.62
PSRKRNLLNEFDR [I3R]: 0.326
PSGKRNLLNEFDR [I3G]: 0.718
PSIKRNLQNEFDR [L8Q]: 1.77
PSIKRNLLNEQDR [F11Q]: 0.16
PSVKRNLLNEFDR [I3V]: 3.26

Study 4
Target: Ras GTPase-activating protein-binding protein 1, full length (G3BP1, Homo sapiens, UniProt Q13283)
Sequence of UniProt Q13283 (whole entry, looked up): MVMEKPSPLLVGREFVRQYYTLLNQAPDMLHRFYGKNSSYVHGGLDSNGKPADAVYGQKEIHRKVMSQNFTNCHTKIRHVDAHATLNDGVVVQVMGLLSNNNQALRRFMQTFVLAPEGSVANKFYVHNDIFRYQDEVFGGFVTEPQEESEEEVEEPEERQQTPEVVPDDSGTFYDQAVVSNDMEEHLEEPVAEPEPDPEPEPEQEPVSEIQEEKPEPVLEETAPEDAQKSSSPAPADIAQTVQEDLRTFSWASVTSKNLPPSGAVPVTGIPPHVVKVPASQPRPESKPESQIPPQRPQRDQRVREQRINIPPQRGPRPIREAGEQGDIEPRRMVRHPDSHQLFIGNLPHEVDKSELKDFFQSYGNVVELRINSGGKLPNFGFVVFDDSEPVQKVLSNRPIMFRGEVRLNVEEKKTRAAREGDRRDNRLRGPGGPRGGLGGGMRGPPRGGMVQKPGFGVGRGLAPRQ
Method: RNA Bind-n-Seq
Molecule type: RNA
Matrix: in vitro
Tested at: 200 nM
Setting: whole 134-nt RNA, ends assumed
Together with: 150 mM KCl
Relative to: input library
Direction: higher = stronger binding
Endpoint: log2 enrichment
Shared flanks, not repeated: GGGAGUUCUACAGUCCGACGAUC … UGGAAUUCUCGGGUGUCAAGG
AAGUCCUGUGCUACACAUCGUAUGUACCGAAUCGGGUUUUGGGUUUUGGUUUUGGGAAAGUAUUAUGUUACGCCGUUCGGAUCUGCACUU: -0.907
CACAGACAACACGCACCCACACAGACACGGAGGGAAGGGGUUGGGAUGGGGACAGGGUGCACAGCAGGGCGGGGUAGGACCCCAGCCCCU: 1.73
GUCCUGUGCUACACAUCGUAUGUACCGAAUCAAAUUUUUAAAUUUUUUUAAAUUUAAAAAAGUAUUAUGUUACGCCGUUCGGAUCUGCAC: -1.62
UCCUGUGCUACACAUCGUAUGUACCGAAUCGGGAAAAAGGGAAAAAAAGGGUUUUUGGGAAAGUAUUAUGUUACGCCGUUCGGAUCUGCA: -0.333
CCUCAAGUCCUGUGCUACACAUCGUAUGUACCGAAUCGGUUUGGUUUGGAGGAAAGUAUUAUGUUACGCCGUUCGGAUCUGCACUUCCAG: -0.0829
UCCUGUGCUACACAUCGUAUGUACCGAAUCGGCCCCCCGGGCCCCCCGGGGCCCCCCGGGAAAGUAUUAUGUUACGCCGUUCGGAUCUGC: -0.654
UGGGAGGUGGAUUUUGUUUAUUUUUUUAGCUCAUUUCCAGGGGUGGGAAUUUUUUUUUAAUAUGUGUCAUGAAUAAAGUUGUUUCUGAAA: 0.402
UUUCUGUGUGCUUAGGUGCCCGAGCUACUGAGGGUCUAAGUCCGGGCAGCCGAAGAGUGUGGUAGGUAACGGUCCUCAGCGCAAGGGUCA: -0.448
UUGUGGAAAGGAGGAGAACCCCUGCUGAAAUUCGAGAGGAGUUUGAGCGGCUGCAGAGAGAGAGAGAAGAGAGGAGAUUGCAGCAGCGAA: -0.264
GUCCUGUGCUACACAUCGUAUGUACCGAAUCGGGGAAAGGGGUUUGGGGUUUUUGGGGAAAGUAUUAUGUUACGCCGUUCGGAUCUGCAC: 0.648
UCCUGUGCUACACAUCGUAUGUACCGAAUCGGGGUGGGGUUUUUUUGGGGAAAAAGGGGAAAGUAUUAUGUUACGCCGUUCGGAUCUGCA: 0.658
AAGUCCUGUGCUACACAUCGUAUGUACCGAAUCGGGAAAAAGGGUGGGAAAAAGGGAAAGUAUUAUGUUACGCCGUUCGGAUCUGCACUU: 0.146
CCUGUGCUACACAUCGUAUGUACCGAAUCGGGCCCCCCGGGGCCCCCCGGGGCCCCCCGGGAAAGUAUUAUGUUACGCCGUUCGGAUCUG: -0.55
GCAGGAAGUAAAAACAAAUGGAAAUGCUUCGGAUAGUUGCAGGGGUGGGGGUUGCUAAGGAAAGGGUGGGAUGGGAGUGGGUAAAGAGUU: 0.748

Study 5
Target: ABI1, truncated, D143A, DHFR fusion (Arabidopsis thaliana)
Method: DHFR PCA, deep sequencing
Matrix: yeast
Setting: methotrexate growth selection, single substitutions
Together with: (+)-ABA 17 µM
Relative to: wild-type fitted maximum
Direction: higher = stronger binding
Endpoint: relative binding score
Starting sequence: PYL1, truncated, DHFR fusion (Arabidopsis thaliana); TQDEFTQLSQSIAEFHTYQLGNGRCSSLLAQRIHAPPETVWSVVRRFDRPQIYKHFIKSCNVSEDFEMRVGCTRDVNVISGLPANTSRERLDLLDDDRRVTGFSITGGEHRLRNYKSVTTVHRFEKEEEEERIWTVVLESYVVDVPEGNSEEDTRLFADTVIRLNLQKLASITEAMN; partner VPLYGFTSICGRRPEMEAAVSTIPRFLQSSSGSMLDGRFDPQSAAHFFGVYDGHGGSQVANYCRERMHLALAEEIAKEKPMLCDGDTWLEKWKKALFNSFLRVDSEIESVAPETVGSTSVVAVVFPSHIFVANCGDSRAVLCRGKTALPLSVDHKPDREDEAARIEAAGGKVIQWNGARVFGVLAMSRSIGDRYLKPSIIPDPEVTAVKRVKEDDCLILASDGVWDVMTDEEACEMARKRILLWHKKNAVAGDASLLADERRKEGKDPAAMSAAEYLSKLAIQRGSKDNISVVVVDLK
T101A: 58.3%
T6N: 80%
S27Y: 15.2%
R111M: 52.9%
S59R: 69.9%
V136C: 73.1%
V161I: 102%
L138H: 33.6%
R69H: 75.5%
E147M: 73.3%
E64Y: 66%
D159N: 81.6%
L28F: 62.5%
R99I: -7.26%
E64S: 84.6%

Mixed results
PhoQ, residues 284 288 289 292 302 303 AGGCYF — fold induction (PhoP, residues 12 14 15 18 19 IQFRS (Escherichia coli, UniProt P23836); Sort-seq, measured: YFP reporter; E. coli; PhoQ-PhoP variant library, together with: 10 µM Mg2+; relative to: high Mg2+ state, higher = stronger signaling): 6.21

A few entries again (study 4):
UGGGAGGUGGAUUUUGUUUAUUUUUUUAGCUCAUUUCCAGGGGUGGGAAUUUUUUUUUAAUAUGUGUCAUGAAUAAAGUUGUUUCUGAAA: 0.402
UUUCUGUGUGCUUAGGUGCCCGAGCUACUGAGGGUCUAAGUCCGGGCAGCCGAAGAGUGUGGUAGGUAACGGUCCUCAGCGCAAGGGUCA: -0.448
UUGUGGAAAGGAGGAGAACCCCUGCUGAAAUUCGAGAGGAGUUUGAGCGGCUGCAGAGAGAGAGAGAAGAGAGGAGAUUGCAGCAGCGAA: -0.264
GUCCUGUGCUACACAUCGUAUGUACCGAAUCGGGGAAAGGGGUUUGGGGUUUUUGGGGAAAGUAUUAUGUUACGCCGUUCGGAUCUGCAC: 0.648
UCCUGUGCUACACAUCGUAUGUACCGAAUCGGGGUGGGGUUUUUUUGGGGAAAAAGGGGAAAGUAUUAUGUUACGCCGUUCGGAUCUGCA: 0.658
AAGUCCUGUGCUACACAUCGUAUGUACCGAAUCGGGAAAAAGGGUGGGAAAAAGGGAAAGUAUUAUGUUACGCCGUUCGGAUCUGCACUU: 0.146
